Published values gathered from unrelated publications.
Each line is one published result; not all experiments were run side by side. ± gives the spread as reported.
blaNDM-1: Metallo-beta-lactamase type 2 (blaNDM-1, Klebsiella pneumoniae, UniProt C7C422)
UniProt C7C422, sequence (whole entry, looked up): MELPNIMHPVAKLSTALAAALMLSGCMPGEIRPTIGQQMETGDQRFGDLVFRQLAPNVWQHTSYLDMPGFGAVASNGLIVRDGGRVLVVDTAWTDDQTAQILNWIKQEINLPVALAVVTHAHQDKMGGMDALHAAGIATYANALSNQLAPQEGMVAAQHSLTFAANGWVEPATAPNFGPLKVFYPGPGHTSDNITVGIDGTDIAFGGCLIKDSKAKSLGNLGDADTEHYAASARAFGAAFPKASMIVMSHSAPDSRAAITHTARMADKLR
Genome polyprotein NS2B-NS3 protease: Genome polyprotein, NS2B-NS3 protease (ZIKV, UniProt A0A024B7W1)
UniProt A0A024B7W1, sequence (whole entry, looked up): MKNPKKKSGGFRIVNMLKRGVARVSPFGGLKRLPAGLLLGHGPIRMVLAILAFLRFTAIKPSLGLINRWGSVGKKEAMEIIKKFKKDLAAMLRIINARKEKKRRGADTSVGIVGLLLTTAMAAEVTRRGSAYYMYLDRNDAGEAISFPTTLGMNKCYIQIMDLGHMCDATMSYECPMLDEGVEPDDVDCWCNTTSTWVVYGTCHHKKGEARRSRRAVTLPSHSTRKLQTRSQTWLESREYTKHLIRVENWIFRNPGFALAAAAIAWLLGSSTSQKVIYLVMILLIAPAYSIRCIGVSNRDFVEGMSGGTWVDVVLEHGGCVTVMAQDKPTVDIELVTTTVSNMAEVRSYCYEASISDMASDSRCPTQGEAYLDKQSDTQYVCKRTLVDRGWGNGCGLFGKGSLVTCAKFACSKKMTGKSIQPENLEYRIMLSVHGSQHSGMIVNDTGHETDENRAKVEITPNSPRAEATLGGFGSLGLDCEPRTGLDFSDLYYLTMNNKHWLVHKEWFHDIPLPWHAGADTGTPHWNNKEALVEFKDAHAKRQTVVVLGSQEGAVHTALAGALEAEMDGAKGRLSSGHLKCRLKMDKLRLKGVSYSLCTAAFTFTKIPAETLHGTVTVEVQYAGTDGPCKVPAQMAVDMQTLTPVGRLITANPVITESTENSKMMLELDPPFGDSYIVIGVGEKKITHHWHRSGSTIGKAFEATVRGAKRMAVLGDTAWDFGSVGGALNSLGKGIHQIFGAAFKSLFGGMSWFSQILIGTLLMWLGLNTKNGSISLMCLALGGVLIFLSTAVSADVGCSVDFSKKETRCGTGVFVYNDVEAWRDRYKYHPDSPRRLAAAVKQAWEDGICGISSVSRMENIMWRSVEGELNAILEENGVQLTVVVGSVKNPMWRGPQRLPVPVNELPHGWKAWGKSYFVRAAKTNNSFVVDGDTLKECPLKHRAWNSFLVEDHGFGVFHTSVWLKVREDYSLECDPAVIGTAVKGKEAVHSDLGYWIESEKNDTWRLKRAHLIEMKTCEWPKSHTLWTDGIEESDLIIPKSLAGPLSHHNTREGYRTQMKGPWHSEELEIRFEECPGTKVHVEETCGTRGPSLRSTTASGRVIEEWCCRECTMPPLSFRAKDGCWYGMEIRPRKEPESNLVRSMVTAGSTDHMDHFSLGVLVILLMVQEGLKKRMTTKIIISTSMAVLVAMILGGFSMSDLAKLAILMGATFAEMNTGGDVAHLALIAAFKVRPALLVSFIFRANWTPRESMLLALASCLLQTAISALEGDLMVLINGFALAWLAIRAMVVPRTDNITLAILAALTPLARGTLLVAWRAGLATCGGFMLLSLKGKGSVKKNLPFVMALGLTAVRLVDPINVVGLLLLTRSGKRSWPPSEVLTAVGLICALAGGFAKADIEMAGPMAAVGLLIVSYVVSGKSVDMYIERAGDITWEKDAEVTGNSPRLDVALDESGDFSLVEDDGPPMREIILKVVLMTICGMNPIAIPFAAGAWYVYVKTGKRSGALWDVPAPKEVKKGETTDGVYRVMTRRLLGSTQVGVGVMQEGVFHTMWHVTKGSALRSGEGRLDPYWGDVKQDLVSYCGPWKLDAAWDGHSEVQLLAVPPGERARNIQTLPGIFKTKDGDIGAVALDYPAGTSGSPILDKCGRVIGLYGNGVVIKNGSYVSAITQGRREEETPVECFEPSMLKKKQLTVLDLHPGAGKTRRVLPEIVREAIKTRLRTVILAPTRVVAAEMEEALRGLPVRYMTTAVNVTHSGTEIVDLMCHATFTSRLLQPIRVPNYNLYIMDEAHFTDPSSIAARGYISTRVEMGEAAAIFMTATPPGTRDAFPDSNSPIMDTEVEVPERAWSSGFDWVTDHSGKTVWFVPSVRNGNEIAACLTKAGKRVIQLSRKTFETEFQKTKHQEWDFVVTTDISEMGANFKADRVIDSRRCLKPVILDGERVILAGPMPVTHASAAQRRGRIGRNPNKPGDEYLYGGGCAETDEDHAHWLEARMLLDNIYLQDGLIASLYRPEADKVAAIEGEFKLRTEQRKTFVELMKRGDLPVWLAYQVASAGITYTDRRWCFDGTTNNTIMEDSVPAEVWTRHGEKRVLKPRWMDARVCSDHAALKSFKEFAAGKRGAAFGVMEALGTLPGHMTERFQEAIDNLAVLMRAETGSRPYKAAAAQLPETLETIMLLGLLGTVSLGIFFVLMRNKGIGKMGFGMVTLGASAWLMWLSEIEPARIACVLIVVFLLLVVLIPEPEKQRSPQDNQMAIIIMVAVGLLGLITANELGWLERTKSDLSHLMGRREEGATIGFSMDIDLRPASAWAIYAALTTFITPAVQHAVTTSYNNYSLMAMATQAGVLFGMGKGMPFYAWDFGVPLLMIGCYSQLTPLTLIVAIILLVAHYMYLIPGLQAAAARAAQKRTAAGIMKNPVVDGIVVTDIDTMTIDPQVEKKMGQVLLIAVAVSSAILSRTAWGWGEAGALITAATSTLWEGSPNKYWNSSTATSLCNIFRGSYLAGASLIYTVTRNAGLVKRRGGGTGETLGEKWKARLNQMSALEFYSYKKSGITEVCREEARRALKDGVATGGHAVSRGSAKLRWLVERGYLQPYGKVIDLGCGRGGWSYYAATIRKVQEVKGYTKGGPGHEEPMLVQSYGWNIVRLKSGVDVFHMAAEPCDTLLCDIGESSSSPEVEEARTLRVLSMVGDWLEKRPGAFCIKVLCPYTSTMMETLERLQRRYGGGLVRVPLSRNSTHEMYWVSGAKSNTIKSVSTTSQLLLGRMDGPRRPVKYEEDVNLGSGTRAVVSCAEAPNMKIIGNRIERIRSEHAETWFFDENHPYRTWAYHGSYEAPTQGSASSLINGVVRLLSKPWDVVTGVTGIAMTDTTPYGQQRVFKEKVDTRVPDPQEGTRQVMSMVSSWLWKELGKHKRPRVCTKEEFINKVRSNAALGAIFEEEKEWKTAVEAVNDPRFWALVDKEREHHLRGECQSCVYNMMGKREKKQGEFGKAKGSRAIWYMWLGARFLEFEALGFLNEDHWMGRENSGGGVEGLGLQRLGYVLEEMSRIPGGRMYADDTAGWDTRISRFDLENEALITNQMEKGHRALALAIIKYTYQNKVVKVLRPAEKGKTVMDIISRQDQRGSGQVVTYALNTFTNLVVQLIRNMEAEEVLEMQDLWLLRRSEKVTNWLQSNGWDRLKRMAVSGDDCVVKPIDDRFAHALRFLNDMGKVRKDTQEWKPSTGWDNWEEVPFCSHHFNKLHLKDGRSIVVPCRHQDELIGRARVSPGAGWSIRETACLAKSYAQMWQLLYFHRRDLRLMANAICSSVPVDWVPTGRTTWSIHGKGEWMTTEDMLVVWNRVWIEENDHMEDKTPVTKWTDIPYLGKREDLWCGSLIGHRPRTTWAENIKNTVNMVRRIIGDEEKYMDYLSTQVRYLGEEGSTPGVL
MCA2: Metacaspase-2 (MCA2, Trypanosoma brucei brucei, UniProt Q585F3)
UniProt Q585F3, sequence (whole entry, looked up): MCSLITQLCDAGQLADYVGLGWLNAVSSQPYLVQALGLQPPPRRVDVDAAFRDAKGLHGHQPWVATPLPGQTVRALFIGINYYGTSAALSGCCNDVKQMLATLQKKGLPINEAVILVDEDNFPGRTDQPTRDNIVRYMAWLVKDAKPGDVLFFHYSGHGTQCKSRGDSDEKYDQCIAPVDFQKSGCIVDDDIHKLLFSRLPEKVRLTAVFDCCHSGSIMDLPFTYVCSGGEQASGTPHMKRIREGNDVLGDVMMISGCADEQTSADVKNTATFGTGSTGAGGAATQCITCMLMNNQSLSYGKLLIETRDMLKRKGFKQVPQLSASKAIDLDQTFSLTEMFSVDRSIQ
Oprm1: Mu-type opioid receptor (Oprm1, Rattus norvegicus, UniProt P33535)
UniProt P33535, sequence (whole entry, looked up): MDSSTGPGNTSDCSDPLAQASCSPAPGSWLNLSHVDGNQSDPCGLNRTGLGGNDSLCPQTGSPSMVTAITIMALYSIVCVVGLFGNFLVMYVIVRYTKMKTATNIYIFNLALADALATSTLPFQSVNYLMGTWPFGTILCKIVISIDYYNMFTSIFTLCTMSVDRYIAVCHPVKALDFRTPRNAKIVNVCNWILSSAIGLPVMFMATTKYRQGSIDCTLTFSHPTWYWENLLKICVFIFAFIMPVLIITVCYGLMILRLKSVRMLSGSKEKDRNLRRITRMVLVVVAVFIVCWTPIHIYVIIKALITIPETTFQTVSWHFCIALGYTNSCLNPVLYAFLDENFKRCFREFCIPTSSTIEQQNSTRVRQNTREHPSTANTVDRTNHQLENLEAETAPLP
UniProt Q2FDS6, sequence (whole entry, looked up): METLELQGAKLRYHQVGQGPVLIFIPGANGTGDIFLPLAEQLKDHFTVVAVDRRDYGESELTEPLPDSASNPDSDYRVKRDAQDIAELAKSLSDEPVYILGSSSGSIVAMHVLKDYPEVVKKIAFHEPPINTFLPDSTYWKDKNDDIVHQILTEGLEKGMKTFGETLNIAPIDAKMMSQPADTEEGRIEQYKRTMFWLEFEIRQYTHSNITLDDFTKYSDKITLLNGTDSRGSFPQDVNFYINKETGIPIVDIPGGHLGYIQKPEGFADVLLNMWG
UniProt P28566, sequence (whole entry, looked up): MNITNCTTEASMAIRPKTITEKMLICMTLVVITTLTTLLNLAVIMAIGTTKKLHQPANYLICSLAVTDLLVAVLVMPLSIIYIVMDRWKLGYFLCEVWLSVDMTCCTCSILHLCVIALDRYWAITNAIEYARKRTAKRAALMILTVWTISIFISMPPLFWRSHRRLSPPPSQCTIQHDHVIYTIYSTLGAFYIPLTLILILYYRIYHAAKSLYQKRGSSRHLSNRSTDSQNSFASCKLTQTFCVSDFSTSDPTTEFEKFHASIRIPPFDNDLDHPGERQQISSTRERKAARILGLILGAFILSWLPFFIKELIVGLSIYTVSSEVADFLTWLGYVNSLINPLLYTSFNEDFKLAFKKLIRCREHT

Compound	target	test	system	setting	Ki
COc1c(O)cc2c3c1-c1ccccc1CC3N(C)CC2 (centres unmarked)	5-hydroxytryptamine receptor 2B (HTR2B, Homo sapiens, UniProt P41595)	ligand displacement, radioligand	–	cell membranes	0.00338 µM
CC[C@H](C)[C@@H]1NC(=O)[C@@H]2CCCN2C(=O)[C@@H](CS)NC(=O)[C@H](CC(C)C)NC(=O)[C@@H](CCCNC(=N)N)NC(=O)[C@@H]([C@H](C)O)NC(=O)[C@H](CCC(=O)O)NC(=O)[C@@H]2CCCN2C1=O	blaNDM-1	enzyme activity, inhibitor	–	with: nitrocefin 1.5 µM	8.1 µM
CN1CCCN(C(=O)c2ccc(S(=O)(=O)F)cc2)c2ccccc21	Uncharacterized hydrolase SAUSA300_2518 (Staphylococcus aureus, UniProt Q2FDS6)	enzyme activity, inhibitor	–	–	118 µM
CC(C)C[C@@H]1NC(=O)[C@@H]2CCCN2C(=O)[C@@H](CS)NC(=O)[C@H](Cc2ccc(O)cc2)NC(=O)[C@@H](CCCNC(=N)N)NC(=O)[C@@H](CCCNC(=N)N)NC(=O)[C@H](CCC(=O)O)NC(=O)[C@@H]2CCCN2C1=O	blaNDM-1	enzyme activity, inhibitor	–	with: nitrocefin 1.5 µM	5.32 µM
CC[C@H](C)[C@H](NC(=O)[C@@H]1CCCN1C(=O)[C@H](CCC(=O)O)NC(=O)[C@H](CCSC)NC(=O)CNC(=O)[C@H](CC(N)=O)NC(=O)CNC(=O)CNC(=O)[C@H](CCC(=O)O)NC(=O)CNC(=O)[C@H](CCCNC(=N)N)NC(=O)[C@H](CCC(N)=O)NC(=O)[C@H](Cc1ccc(O)cc1)NC(=O)[C@H](CC(C)C)NC(=O)[C@H](CCCCN)NC(=O)[C@@H]1CCCN1C(=O)[C@H](CCC(N)=O)NC(=O)[C@H](C)NC(=O)[C@@H](NC(=O)[C@H](CCC(=O)O)NC(=O)[C@H](C)NC(=O)[C@H](CCC(=O)O)NC(=O)[C@@H](NC(=O)[C@@H]1CCCN1C(=O)[C@@H](N)CCCCN)C(C)C)C(C)C)C(=O)N1CCC[C@H]1C(=O)N[C@@H](CCC(=O)O)C(=O)N[C@@H](CC(=O)O)C(=O)N[C@H](C(=O)N[C@@H](CC(C)C)C(=O)N[C@@H](CC(N)=O)C(=O)N[C@@H](CCC(=O)O)C(=O)N[C@@H](C)C(=O)N[C@@H](CC(C)C)C(=O)N[C@@H](CC(N)=O)C(=O)N[C@@H](C)C(=O)O)C(C)C	Prothrombin, gamma-thrombin (F2, Homo sapiens, UniProt P00734)	–	–	pH 8	26.2 ± 0.95 µM
C[C@@H](Cc1ccsc1)NC(=O)NC[C@H](Cc1ccc(O)cc1)N(C)C	Neurotensin receptor type 1 (NTSR1, Homo sapiens, UniProt P30989)	–	–	–	> 50 µM
CC(C)CCNC(=O)[C@H](CCCCN)NC(=O)[C@H](CCCCN)NC(=O)Cc1cccc(CNC(=O)[C@@H](C)NC(=N)N)c1	Genome polyprotein NS2B-NS3 protease	NS2B-NS3 protease activity, inhibitor	–	–	> 1 µM
CC(C)(COP(=O)(O)OP(=O)(O)OC[C@H]1O[C@@H](n2cnc3c(N)ncnc32)[C@H](O)[C@@H]1OP(=O)(O)O)[C@@H](O)C(=O)NCCC(=O)NCCSCC(=O)N[C@@H](CO)C(=O)NCC(=O)N[C@@H](CCCNC(=N)N)C(=O)NCC(=O)N[C@@H](CCCCN)C(=O)NCCOCCOCC(=O)NCCCC[C@H](NC(=O)CC[C@@H]1NC(=O)[C@@H](CCCNC(=N)N)NC(=O)[C@H](CCCNC(=N)N)NC(=O)[C@@H](CCCNC(=N)N)NC(=O)[C@H](CCCNC(=N)N)NC(=O)[C@H](Cc2csc3ccccc23)NC(=O)[C@@H](Cc2ccccc2)NC(=O)[C@H](Cc2ccccc2)NC1=O)C(N)=O	N-alpha-acetyltransferase 40 (NAA40, Homo sapiens, UniProt Q86UY6)	enzyme activity, inhibitor, fluorescence	–	–	0.065 µM
C[C@H](NC(=O)[C@H](CCCCN)NC(=O)c1ccccc1N)C(=O)N[C@@H](CCC(N)=O)C(=O)N[C@@H](CO)C(=O)N[C@@H](CO)C(=O)N[C@@H](C)C(=O)N[C@@H](CCC(N)=O)C(=O)NCCNc1ccc([N+](=O)[O-])cc1[N+](=O)[O-]	MCA2	enzyme activity, competitive inhibitor	Trypanosoma brucei	with: Z-FR-AMC substrate	5.7 µM
Cc1cc(O)cc(C)c1C[C@H](N)C(=O)N[C@@H]1C/C=C\CC[C@@H](C(N)=O)NC(=O)[C@H](Cc2ccccc2)NC(=O)[C@H](Cc2ccccc2)NC1=O	Oprm1	ligand displacement, radioligand	–	cell membranes	0.000528 µM
CN1CCC(c2c[nH]c3ccc(O)cc23)CC1	5-hydroxytryptamine receptor 1E (HTR1E, Homo sapiens, UniProt P28566)	binding	–	–	0.000182 µM
C[C@H](NC(=O)[C@H](CCCCN)NC(=O)c1ccccc1N)C(=O)N[C@@H](CCCNC(=N)N)C(=O)N[C@@H](CO)C(=O)N1CCC[C@H]1C(=O)N[C@@H](C)C(=O)N[C@@H](CCC(N)=O)C(=O)NCCNc1ccc([N+](=O)[O-])cc1[N+](=O)[O-]	MCA2	substrate	–	pH 7.4, 25 °C, with: 1 mM CaCl2	5.9 µM
CC(C)C[C@@H]1NC(=O)[C@@H]2CCCN2C(=O)[C@@H](CS)NC(=O)[C@H](Cc2ccc(O)cc2)NC(=O)[C@@H](CCCNC(=N)N)NC(=O)[C@@H](CCCNC(=N)N)NC(=O)C(C)(C)NC(=O)[C@@H]2CCCN2C1=O	blaNDM-1	enzyme activity, inhibitor	–	with: nitrocefin 1.5 µM	1.62 µM
C[C@H](NC(=O)[C@H](CCCCN)NC(=O)c1ccccc1N)C(=O)N[C@@H](Cc1c[nH]cn1)C(=O)N[C@@H](CO)C(=O)N[C@@H](CO)C(=O)N[C@@H](C)C(=O)N[C@@H](CCC(N)=O)C(=O)NCCNc1ccc([N+](=O)[O-])cc1[N+](=O)[O-]	MCA2	enzyme activity, competitive inhibitor	Trypanosoma brucei	with: Z-FR-AMC substrate	5.1 µM
CC(C)C[C@H](NC(=O)[C@H](CCCCN)NC(=O)[C@H](CCCCN)NC(=O)Cc1cccc(CNC(=O)[C@H](C)NC(=N)N)c1)B(O)O	Genome polyprotein NS2B-NS3 protease	inhibitor	Zika virus	–	0.0114 ± 0.0006 µM
Cc1cc(O)cc(C)c1C[C@H](N)C(=O)N[C@H](CCCNC(=N)N)C(=O)N[C@@H](Cc1ccccc1)C(=O)N[C@@H](CCCCN)C(=O)NCCCCCCCCCCNC(=O)[C@H](Cc1ccccc1)NC(=O)[C@H](CC1CCCCC1)NC[C@@H]1Cc2ccccc2CN1C(=O)[C@@H](N)Cc1ccc(O)cc1	Oprm1	ligand displacement, radioligand	–	cell membranes	0.0334 µM
CC[C@H](C)[C@@H]1NC(=O)[C@@H]2CCCN2C(=O)[C@@H](CS)NC(=O)[C@H](Cc2ccc(O)cc2)NC(=O)[C@@H](CCCNC(=N)N)NC(=O)[C@@H]([C@H](C)O)NC(=O)[C@H](CCC(=O)O)NC(=O)[C@@H]2CCCN2C1=O	blaNDM-1	enzyme activity, inhibitor	–	with: nitrocefin 1.5 µM	6.49 µM
Cc1cc(O)cc(C)c1C[C@H](N)C(=O)N[C@H](CCCNC(=N)N)C(=O)N[C@@H](Cc1ccccc1)C(=O)N[C@@H](CCCCN)C(=O)NCCCCCC(=O)N[C@@H](CCCCNC(=O)CN1CCN(CC(=O)O)CCN(CC(=O)O)CCN(CC(=O)O)CC1)C(N)=O	Delta-type opioid receptor (Oprd1, Mus musculus, UniProt P32300)	binding	CD-1 mouse	–	0.0338 ± 0.0018 µM
CC(Cc1cccs1)NCc1ccc(Cl)cc1 (centres unmarked)	Sodium-dependent serotonin transporter (Slc6a4, Rattus norvegicus, UniProt P31652)	ligand displacement, radioligand	–	–	2.7 µM
O=C1c2ccccc2CCCN1CCCCN1CCN(c2cccc(Cl)c2Cl)CC1	Alpha-1B adrenergic receptor (ADRA1B, Homo sapiens, UniProt P35368)	ligand displacement, radioligand	–	–	0.657 µM
C[C@H](NC(=O)[C@H](CCCCN)NC(=O)c1ccccc1N)C(=O)N[C@@H](CCCNC(=N)N)C(=O)N1CCC[C@H]1C(=O)N[C@@H](CO)C(=O)N[C@@H](C)C(=O)N[C@@H](CCC(N)=O)C(=O)NCCNc1ccc([N+](=O)[O-])cc1[N+](=O)[O-]	MCA2	enzyme activity, competitive inhibitor	Trypanosoma brucei	with: Z-FR-AMC substrate	4.6 µM
CC(=O)N[C@@H](CC(C)C)C(=O)N[C@@H](CCCN=C(N)N)C(=O)N[C@H](C(=O)N[C@@H](CCCCN)C(=O)N[C@@H](CCCN=C(N)N)C(N)=O)C(C)C	Proprotein convertase subtilisin/kexin type 7 (Homo sapiens, UniProt Q16549)	enzyme activity, inhibitor	–	–	2.2 µM
CC(C)C[C@H]1NC(=O)[C@@H]2CCCN2C(=O)[C@H](C(C)C)NC(=O)[C@@H]2CCCN2C(=O)[C@@H](CS)NC(=O)[C@H](CCCCN)NC(=O)[C@H](CCCCN)NC(=O)[C@H](CC(=O)O)NC1=O	blaNDM-1	enzyme activity, inhibitor	–	with: nitrocefin 1.5 µM	10.8 µM
CC(C)c1cc2c(c(O)c1O)C1(C=O)CCCC(C)(C)C1CC2 (centres unmarked)	Catenin beta-1, armadillo repeat domain (Mus musculus, UniProt Q02248)	binding to HD2, inhibitor, ELISA	–	with: His-HD2 with GST-ARD	4.8 ± 1 µM
C[C@H](NC(=O)[C@H](CCCCN)NC(=O)c1ccccc1N)C(=O)N[C@@H](CCCNC(=N)N)C(=O)N[C@@H](CO)C(=O)N[C@@H](CO)C(=O)N[C@@H](Cc1ccccc1)C(=O)N[C@@H](CCC(N)=O)C(=O)NCCNc1ccc([N+](=O)[O-])cc1[N+](=O)[O-]	MCA2	substrate	–	pH 7.4, 25 °C, with: 1 mM CaCl2	3.7 µM
Cc1cc(O)cc(C)c1C[C@H](N)C(=O)N[C@H](CCCNC(=N)N)C(=O)N[C@@H](Cc1ccccc1)C(=O)N(C)CC(=O)N(C)Cc1cc(C(F)(F)F)cc(C(F)(F)F)c1	Delta-type opioid receptor (OPRD1, Homo sapiens, UniProt P41143, W274F)	–	–	–	0.0301 ± 0.0049 µM

Excerpt of the above:
Compound	target	test	system	setting	Ki
CC(C)C[C@@H]1NC(=O)[C@@H]2CCCN2C(=O)[C@@H](CS)NC(=O)[C@H](Cc2ccc(O)cc2)NC(=O)[C@@H](CCCNC(=N)N)NC(=O)[C@@H](CCCNC(=N)N)NC(=O)C(C)(C)NC(=O)[C@@H]2CCCN2C1=O	blaNDM-1	enzyme activity, inhibitor	–	with: nitrocefin 1.5 µM	1.62 µM
C[C@H](NC(=O)[C@H](CCCCN)NC(=O)c1ccccc1N)C(=O)N[C@@H](Cc1c[nH]cn1)C(=O)N[C@@H](CO)C(=O)N[C@@H](CO)C(=O)N[C@@H](C)C(=O)N[C@@H](CCC(N)=O)C(=O)NCCNc1ccc([N+](=O)[O-])cc1[N+](=O)[O-]	MCA2	enzyme activity, competitive inhibitor	Trypanosoma brucei	with: Z-FR-AMC substrate	5.1 µM
